Measured values gathered from unrelated publications.
Each numbered part is a random draw from the data of one study; scales do not carry over between parts. Substitutions count along the parent as printed.
UniProt Q38829, sequence (whole entry, looked up): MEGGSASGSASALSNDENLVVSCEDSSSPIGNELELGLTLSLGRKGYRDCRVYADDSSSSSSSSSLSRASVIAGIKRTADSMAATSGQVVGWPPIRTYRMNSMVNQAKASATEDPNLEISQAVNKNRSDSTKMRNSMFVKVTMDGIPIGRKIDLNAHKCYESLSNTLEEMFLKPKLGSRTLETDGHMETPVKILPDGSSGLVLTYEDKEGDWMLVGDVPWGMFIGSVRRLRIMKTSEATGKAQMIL
UniProt Q9UL54, sequence (whole entry, looked up): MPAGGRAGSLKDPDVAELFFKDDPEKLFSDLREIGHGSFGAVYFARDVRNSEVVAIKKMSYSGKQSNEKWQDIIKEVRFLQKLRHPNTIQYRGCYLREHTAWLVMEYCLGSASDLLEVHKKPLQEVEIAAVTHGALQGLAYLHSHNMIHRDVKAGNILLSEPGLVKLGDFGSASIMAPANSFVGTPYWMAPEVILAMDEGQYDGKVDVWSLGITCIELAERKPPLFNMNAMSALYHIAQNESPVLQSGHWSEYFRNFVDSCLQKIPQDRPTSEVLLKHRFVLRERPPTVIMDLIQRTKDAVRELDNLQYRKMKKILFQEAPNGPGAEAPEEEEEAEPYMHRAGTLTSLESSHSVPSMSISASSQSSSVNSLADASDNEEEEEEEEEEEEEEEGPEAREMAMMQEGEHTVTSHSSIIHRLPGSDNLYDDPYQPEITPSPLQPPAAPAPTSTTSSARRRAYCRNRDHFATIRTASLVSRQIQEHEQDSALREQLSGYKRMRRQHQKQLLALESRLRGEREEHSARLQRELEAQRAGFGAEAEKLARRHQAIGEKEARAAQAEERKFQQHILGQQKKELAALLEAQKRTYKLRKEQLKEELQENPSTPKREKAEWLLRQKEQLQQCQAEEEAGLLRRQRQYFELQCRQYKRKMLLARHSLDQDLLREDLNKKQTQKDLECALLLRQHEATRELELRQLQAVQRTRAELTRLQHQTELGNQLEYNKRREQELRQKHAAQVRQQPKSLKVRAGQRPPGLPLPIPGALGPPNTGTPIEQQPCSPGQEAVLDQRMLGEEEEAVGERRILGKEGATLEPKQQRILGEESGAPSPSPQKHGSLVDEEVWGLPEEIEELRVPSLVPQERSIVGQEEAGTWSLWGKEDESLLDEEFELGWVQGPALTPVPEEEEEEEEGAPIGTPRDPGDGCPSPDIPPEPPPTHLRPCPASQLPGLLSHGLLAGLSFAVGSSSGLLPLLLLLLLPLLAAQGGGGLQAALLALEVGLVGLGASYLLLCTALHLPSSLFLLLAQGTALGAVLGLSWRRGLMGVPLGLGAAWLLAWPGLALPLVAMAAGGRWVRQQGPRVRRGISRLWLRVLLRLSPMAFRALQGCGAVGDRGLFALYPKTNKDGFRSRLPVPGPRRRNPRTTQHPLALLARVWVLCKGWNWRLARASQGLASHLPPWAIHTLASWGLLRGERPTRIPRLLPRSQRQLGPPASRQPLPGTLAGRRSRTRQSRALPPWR
UniProt Q02763, sequence (whole entry, looked up): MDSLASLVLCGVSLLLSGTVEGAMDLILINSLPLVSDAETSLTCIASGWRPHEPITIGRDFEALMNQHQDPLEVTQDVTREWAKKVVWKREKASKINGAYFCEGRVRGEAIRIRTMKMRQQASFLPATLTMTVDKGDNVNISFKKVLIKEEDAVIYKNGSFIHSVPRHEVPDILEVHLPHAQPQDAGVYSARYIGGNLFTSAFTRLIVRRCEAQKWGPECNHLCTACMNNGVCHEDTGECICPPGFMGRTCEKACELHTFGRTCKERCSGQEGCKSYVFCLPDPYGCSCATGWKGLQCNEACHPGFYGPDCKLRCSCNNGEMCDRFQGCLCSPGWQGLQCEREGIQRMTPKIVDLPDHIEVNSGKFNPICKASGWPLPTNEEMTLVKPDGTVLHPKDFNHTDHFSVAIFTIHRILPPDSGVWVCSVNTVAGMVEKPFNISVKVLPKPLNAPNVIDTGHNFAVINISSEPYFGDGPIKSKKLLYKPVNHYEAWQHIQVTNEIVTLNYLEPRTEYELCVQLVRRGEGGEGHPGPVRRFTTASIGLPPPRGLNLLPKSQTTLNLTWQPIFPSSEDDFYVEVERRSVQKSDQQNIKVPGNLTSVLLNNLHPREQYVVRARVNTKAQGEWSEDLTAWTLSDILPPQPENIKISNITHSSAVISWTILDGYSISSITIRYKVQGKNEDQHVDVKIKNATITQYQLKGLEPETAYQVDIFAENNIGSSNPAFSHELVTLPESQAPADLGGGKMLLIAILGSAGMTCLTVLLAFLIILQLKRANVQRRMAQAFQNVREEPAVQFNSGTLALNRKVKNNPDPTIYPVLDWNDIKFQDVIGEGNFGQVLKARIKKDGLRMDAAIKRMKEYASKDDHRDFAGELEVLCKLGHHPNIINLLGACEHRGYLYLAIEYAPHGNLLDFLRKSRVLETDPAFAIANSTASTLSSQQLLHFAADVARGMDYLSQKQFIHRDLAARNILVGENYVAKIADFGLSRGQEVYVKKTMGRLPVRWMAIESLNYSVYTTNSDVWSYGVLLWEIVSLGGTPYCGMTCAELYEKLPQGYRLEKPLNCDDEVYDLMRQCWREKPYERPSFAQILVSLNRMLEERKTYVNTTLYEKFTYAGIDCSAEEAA
UniProt O23661, sequence (whole entry, looked up): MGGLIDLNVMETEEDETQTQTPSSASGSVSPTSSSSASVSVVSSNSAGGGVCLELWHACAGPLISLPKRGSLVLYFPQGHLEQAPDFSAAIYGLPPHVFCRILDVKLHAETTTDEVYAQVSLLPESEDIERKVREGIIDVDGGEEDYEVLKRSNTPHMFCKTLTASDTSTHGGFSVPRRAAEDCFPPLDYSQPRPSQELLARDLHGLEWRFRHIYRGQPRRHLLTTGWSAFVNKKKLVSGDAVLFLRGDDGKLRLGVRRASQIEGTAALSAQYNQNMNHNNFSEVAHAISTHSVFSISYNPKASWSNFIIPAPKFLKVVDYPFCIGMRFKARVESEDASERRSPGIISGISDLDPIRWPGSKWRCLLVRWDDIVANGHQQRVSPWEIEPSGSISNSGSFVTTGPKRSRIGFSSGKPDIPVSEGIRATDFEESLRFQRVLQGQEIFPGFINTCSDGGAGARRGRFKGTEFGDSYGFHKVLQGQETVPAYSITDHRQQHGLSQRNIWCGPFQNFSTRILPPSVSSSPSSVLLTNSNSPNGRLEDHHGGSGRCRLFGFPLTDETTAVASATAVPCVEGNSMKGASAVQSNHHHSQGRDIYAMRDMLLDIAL
UniProt Q93YR9, sequence (whole entry, looked up): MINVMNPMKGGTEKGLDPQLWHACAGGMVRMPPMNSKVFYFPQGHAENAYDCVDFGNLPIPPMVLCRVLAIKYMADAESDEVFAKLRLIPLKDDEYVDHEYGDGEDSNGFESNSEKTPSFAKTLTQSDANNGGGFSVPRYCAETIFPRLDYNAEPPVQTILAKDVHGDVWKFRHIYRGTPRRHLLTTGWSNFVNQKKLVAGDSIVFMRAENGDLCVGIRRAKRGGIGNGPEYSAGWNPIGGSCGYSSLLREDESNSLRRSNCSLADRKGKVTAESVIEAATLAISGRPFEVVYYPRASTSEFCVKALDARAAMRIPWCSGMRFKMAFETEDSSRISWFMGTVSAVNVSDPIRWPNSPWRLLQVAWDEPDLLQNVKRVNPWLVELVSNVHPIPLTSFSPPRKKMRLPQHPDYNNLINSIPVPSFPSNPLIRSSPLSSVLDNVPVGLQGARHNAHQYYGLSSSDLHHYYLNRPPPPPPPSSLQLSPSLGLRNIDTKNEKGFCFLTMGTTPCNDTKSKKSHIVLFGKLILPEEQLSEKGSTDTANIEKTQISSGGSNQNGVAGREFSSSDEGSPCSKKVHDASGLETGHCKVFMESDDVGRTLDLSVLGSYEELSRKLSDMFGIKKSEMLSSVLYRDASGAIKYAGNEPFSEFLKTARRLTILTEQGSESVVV
UniProt P51812, sequence (whole entry, looked up): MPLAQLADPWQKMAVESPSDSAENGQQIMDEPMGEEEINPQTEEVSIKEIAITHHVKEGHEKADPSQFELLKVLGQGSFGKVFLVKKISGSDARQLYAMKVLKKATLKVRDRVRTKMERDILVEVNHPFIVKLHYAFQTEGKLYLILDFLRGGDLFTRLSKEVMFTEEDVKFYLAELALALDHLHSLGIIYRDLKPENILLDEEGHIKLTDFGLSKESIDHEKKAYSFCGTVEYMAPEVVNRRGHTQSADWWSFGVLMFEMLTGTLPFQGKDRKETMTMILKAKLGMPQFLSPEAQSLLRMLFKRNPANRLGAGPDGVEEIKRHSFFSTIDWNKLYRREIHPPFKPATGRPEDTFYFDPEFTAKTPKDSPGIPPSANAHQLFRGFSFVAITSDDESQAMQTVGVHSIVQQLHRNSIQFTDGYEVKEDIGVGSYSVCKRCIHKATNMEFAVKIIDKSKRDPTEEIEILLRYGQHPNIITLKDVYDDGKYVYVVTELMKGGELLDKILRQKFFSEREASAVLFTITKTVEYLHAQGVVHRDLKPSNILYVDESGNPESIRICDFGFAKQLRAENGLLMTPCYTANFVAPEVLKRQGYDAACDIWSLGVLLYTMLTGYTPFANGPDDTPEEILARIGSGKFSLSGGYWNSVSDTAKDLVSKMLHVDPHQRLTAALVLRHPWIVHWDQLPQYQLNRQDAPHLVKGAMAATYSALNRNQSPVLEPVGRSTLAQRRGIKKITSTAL
UniProt Q9ZSY8, sequence (whole entry, looked up): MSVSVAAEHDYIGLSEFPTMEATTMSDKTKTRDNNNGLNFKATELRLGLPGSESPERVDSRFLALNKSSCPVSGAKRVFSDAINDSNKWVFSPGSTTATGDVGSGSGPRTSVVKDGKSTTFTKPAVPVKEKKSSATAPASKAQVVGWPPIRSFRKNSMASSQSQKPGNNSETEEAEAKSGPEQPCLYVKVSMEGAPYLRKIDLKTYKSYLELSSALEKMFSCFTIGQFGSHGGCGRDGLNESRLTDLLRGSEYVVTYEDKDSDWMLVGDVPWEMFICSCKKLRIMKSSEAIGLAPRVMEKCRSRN

Block 1 — Sequence: B1 (IAA4); method: two-hybrid; reading: higher = firmer interaction; quantity: positive tests
B1: IAA4 (Arabidopsis thaliana, UniProt P33077); chain MEKVDVYDELVNLKATELRLGLPGTEETVSCGKSNKRVLPEATEKEIESTGKTETASPPKAQIVGWPPVRSYRKNNVQTKKSESEGQGNYVKVSMDGAPYLRKIDLTMYKQYPELMKSLENMFKFSVGEYFEREGYKGSDFVPTYEDKDGDWMLVGDVPWEMFVSSCKRLRIMKGSEVKGLGCGGL
ETT (Arabidopsis thaliana, UniProt O23661); reference: out of 3 tests: 0
IAA11 (Arabidopsis thaliana, UniProt Q38829); weak activation fusion; reference: out of 4 tests: 2
IAA27 (Arabidopsis thaliana, UniProt Q9ZSY8); reference: out of 4 tests: 4
ARF7 1030-1164 (Arabidopsis thaliana, UniProt P93022); reference: out of 4 tests: 4
ARF10 575-693 (Arabidopsis thaliana, UniProt Q9SKN5); reference: out of 4 tests: 1
IAA32 (Arabidopsis thaliana, UniProt Q8RYC6); reference: out of 4 tests: 0
ARF16 570-670 (Arabidopsis thaliana, UniProt Q93YR9); reference: out of 4 tests: 1
ARF13 (Arabidopsis thaliana, UniProt Q9FX25); reference: out of 4 tests: 2

Block 2 — read-out: cell-free assay; method: competition with immobilised ligand; tested at: 1 µM; quantity: remaining binding
Structure (SMILES): O=C(NS(=O)(=O)c1ccc(NCC2CCOCC2)c([N+](=O)[O-])c1)c1ccc(N2CCN(Cc3ccc(C(F)(F)F)cc3-c3ccc(Cl)cc3)CC2)cc1Oc1cnc2[nH]ccc2c1
Ribosomal protein S6 kinase alpha-4, C-terminal kinase domain (RPS6KA4, Homo sapiens, UniProt O75676): 89%
MYLK (Homo sapiens, UniProt Q15746): 65%
SNRK (Homo sapiens, UniProt Q9NRH2): 100%
PIKFYVE (Homo sapiens, UniProt Q9Y2I7): 100%
KIT (Homo sapiens, UniProt P10721, D816V): 100%
BRSK1 (Homo sapiens, UniProt Q8TDC3): 100%
RAF1 (Homo sapiens, UniProt P04049): 100%
MAP2K7 (Homo sapiens, UniProt O14733): 100%
CLK1 (Homo sapiens, UniProt P49759): 69%
Ribosomal protein S6 kinase alpha-3, N-terminal kinase domain (RPS6KA3, Homo sapiens, UniProt P51812): 100%
Tyrosine-protein kinase ABL1, non-phosphorylated (ABL1, Homo sapiens, UniProt P00519, H396P): 94%
HIPK2 (Homo sapiens, UniProt Q9H2X6): 100%
DDR1 (Homo sapiens, UniProt Q08345): 100%
STK3 (Homo sapiens, UniProt Q13188): 100%
TNIK (Homo sapiens, UniProt Q9UKE5): 100%
FGFR2 (Homo sapiens, UniProt P21802): 100%

Block 3 — read-out: enzyme activity; mode: inhibitor; tested at: 0.5 µM; reference: control; quantity: remaining activity
Compound: CN(C)S(=O)(=O)c1ccc2c(c1)/C(=C/c1cc3c([nH]1)CCCC3)C(=O)N2
LCK (Homo sapiens, UniProt P06239): 34.7%
EPHA3 (Homo sapiens, UniProt P29320): 98.6%
ABL2 (Homo sapiens, UniProt P42684): 56.8%
MAPK3 (Homo sapiens, UniProt P27361): 102%
GRK7 (Homo sapiens, UniProt Q8WTQ7): 82.3%
MERTK (Homo sapiens, UniProt Q12866): 20.9%
ULK2 (Homo sapiens, UniProt Q8IYT8): 26.3%
NEK6 (Homo sapiens, UniProt Q9HC98): 90.7%
MAP2K2 (Homo sapiens, UniProt P36507): 104%
TEK (Homo sapiens, UniProt Q02763): 95.4%
CSNK1G2 (Homo sapiens, UniProt P78368): 93.8%
WEE1 (Homo sapiens, UniProt P30291): 94.5%
TAOK2 (Homo sapiens, UniProt Q9UL54): 89.6%
FGFR1 (Homo sapiens, UniProt P11362): 71.4%

Block 4 — method: DHFR PCA, dose-response; matrix: yeast; setting: Hill fit, mean, not affinity; with: (+)-ABA, dose series; reading: lower = more sensitive; quantity: ABA EC50
Target: ABI1, truncated, D143A, DHFR fusion (Arabidopsis thaliana, UniProt P49597)
Parent: PYL1, truncated, DHFR fusion (Arabidopsis thaliana, UniProt Q8VZS8); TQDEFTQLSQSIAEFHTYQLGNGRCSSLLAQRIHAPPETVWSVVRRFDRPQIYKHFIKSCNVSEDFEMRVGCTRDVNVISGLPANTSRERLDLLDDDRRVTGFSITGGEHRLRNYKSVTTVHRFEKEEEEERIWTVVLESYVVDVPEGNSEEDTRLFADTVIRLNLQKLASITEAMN
S11A: 1.51 µM
V142N: 19.6 µM
A13V: 4.45 µM
A175G: 1.23 µM
D65W: 23 µM
K116A: 9.59 µM
R90S: 29.2 µM
S27Y: 226 µM

Excerpt of the above (block 1):
IAA27 (Arabidopsis thaliana, UniProt Q9ZSY8); reference: out of 4 tests: 4
ARF7 1030-1164 (Arabidopsis thaliana, UniProt P93022); reference: out of 4 tests: 4
ARF10 575-693 (Arabidopsis thaliana, UniProt Q9SKN5); reference: out of 4 tests: 1
IAA32 (Arabidopsis thaliana, UniProt Q8RYC6); reference: out of 4 tests: 0
ARF16 570-670 (Arabidopsis thaliana, UniProt Q93YR9); reference: out of 4 tests: 1
